Results collected from several papers.
Numbers after ± are the reported error.

Structure (SMILES) | system | conditions | how to read | measurement | value
N[C@@H](COc1ccccc1C(F)(F)F)c1ccccc1 | male Sprague-Dawley rat, serum | intravenous, 5 mg/kg |  | Cmax | 249 ± 2 ng/mL
CCCC(CCC(=O)O)NC(=O)c1ccc2c(c1)OCO2 (centres unmarked) | male Sprague-Dawley rats, plasma | oral, 50 mg/kg of parent drug | baseline: 50 over 20 mg/kg dose | Cmax ratio | 2.34
CC/C=C\C/C=C\C/C=C\C/C=C\C/C=C\CCCCOC(CC)C(=O)O (centres unmarked) | Wistar rat, male, portal vein blood, mesenteric lymph | oral, 100 mg/kg | baseline: portal vein over mesenteric lymph | Cmax ratio | ~2 fold
Cc1noc(C)c1Cn1cc(N2C(=O)CN(Cc3cccc(OS(=O)(=O)O)c3)C2=O)cn1 | rat Sprague-Dawley male, plasma | oral, 30 mg/kg of parent drug |  | Cmax | 4620 ng/mL
CCCC(CCC)NC(=O)c1ccc(O)c(O)c1 | female Sprague-Dawley rats, plasma | oral, 50 mg/kg of parent drug | baseline: 50 over 20 mg/kg dose | Cmax ratio | 1.63
Cc1noc(C)c1Cn1cc(N2C(=O)CN(Cc3cccc(O[C@@H]4O[C@H](C(=O)O)[C@@H](O)[C@H](O)[C@H]4O)c3)C2=O)cn1 | rat Sprague-Dawley male, plasma | oral, 30 mg/kg of parent drug |  | Cmax | 8050 ng/mL
Cc1ncc2c(n1)CN(C(=O)Nc1nc(-c3cccs3)ccc1N)C2 | male Sprague-Dawley rats | oral, 45 mg/kg daily, day 14 |  | Cmax | 3780 ± 1450 ng/mL
COc1ccc(N2CCOCC2)c2sc(NC(=O)c3ccnc(CN4CCCC4)c3)nc12 | Wistar rat, plasma (total) | oral, 15 mg/kg/day, 14 days |  | Cmax | 6380 ng/mL
O=c1nc(NO)ccn1[C@@H]1O[C@H](CO)[C@@H](O)[C@H]1O | male Wistar rats, plasma | oral, 30 mg/kg | baseline: CFA-arthritic over normal rats | Cmax ratio | 1.1 fold
COc1ccnc(C[S+]([O-])c2nc3cc(-n4cccc4)ccc3[nH]2)c1C (centres unmarked) | male Sprague Dawley rats, plasma | oral, 10 mg/kg ilaprazole racemate | baseline: compound over R-ilaprazole | Cmax ratio | 1.28
CCCC(CCC)NC(=O)c1ccc(OC2OC(C(=O)O)C(O)C(O)C2O)c(O)c1 (centres unmarked) | male Sprague-Dawley rats, plasma | oral, 200 mg/kg of parent drug | baseline: 200 over 20 mg/kg dose | Cmax ratio | 3.98
OC1(C(F)(F)F)CCN(c2nc(Nc3ccnc(C(F)(F)F)c3)nc(-c3cccc(C(F)(F)F)n3)n2)C1 (centres unmarked) | Sprague-Dawley rat, both sexes, plasma | oral, 5 mg/kg daily for 14 days | baseline: day 14 over day 1 | Cmax accumulation ratio | 2.4
CCCC(CCC)NC(=O)c1ccc(OC2OC(C(=O)O)C(O)C(O)C2O)c(OC)c1 (centres unmarked) | male Sprague-Dawley rats, plasma | oral, 200 mg/kg of parent drug | baseline: 200 over 20 mg/kg dose | Cmax ratio | 3.8
CCCC[C@H](NC(=O)[C@H](CC(C)C)N(C)C(=O)CNC(=O)[C@@H](NC(=O)[C@H](Cc1ccccc1)NC(=O)[C@H](CCCCN)NC(=O)[C@@H](N)CC(=O)O)C(C)C)C(N)=O | rat | 100 µg/kg IV, 300 µg/kg SC | baseline: IV over SC | Cmax ratio | 4

Repeated from above:
Structure (SMILES) | system | conditions | how to read | measurement | value
Cc1ncc2c(n1)CN(C(=O)Nc1nc(-c3cccs3)ccc1N)C2 | male Sprague-Dawley rats | oral, 45 mg/kg daily, day 14 |  | Cmax | 3780 ± 1450 ng/mL
CCCC(CCC(=O)O)NC(=O)c1ccc2c(c1)OCO2 (centres unmarked) | male Sprague-Dawley rats, plasma | oral, 50 mg/kg of parent drug | baseline: 50 over 20 mg/kg dose | Cmax ratio | 2.34
